Measured values from different studies.
Each line is one published result; not all experiments were run side by side. “And” joins repeats or separate records; there may be more than shown. ± gives the spread as reported.
UniProt P07437, sequence (whole entry, looked up): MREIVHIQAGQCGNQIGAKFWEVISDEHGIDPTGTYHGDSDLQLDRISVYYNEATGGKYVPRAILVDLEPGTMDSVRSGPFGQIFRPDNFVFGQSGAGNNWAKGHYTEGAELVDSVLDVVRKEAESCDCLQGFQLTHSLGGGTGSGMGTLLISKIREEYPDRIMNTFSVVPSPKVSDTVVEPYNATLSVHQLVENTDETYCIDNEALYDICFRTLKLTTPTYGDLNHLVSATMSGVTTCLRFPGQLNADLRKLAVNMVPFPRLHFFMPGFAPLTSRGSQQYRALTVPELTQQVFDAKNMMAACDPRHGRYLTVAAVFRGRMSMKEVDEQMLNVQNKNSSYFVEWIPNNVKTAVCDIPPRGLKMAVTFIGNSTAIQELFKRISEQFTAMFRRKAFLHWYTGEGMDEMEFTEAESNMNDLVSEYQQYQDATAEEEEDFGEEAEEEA
UniProt O15552, sequence (whole entry, looked up): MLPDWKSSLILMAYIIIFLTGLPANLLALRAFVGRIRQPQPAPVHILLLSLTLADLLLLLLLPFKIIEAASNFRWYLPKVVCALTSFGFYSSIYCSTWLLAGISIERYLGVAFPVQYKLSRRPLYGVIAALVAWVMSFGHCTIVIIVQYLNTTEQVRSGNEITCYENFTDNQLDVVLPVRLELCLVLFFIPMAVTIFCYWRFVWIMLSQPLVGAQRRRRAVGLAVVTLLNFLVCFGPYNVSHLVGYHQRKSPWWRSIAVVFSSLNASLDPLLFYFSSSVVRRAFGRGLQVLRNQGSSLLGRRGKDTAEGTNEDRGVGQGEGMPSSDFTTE
UniProt P42336, sequence (whole entry, looked up): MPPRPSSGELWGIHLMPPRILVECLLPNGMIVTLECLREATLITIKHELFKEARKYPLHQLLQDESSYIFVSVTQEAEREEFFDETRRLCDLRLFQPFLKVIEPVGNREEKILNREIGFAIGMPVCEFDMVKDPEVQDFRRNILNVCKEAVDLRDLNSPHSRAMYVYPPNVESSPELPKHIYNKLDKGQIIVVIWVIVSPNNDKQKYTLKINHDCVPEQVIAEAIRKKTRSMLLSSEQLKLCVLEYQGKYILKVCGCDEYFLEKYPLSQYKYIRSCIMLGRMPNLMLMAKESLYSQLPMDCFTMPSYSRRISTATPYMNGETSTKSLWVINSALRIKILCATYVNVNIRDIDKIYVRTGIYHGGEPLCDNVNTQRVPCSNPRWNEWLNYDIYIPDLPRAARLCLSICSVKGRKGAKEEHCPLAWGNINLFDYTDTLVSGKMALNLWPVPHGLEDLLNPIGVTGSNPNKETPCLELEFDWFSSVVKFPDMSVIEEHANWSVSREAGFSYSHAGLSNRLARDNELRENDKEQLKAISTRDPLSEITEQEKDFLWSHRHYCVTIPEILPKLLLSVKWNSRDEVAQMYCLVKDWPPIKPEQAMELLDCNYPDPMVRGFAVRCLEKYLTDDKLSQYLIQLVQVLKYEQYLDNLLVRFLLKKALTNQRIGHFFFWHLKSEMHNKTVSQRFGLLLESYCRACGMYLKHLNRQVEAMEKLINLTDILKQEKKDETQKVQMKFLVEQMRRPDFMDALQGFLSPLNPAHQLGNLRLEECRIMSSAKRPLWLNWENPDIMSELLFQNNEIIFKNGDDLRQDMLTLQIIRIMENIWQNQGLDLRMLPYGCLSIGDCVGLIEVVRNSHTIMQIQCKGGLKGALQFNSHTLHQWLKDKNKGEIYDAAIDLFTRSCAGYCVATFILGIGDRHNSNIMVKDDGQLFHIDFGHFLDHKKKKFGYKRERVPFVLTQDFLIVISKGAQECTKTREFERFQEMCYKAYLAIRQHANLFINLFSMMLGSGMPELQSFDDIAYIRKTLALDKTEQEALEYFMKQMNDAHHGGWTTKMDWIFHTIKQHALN
UniProt Q9BZL6, sequence (whole entry, looked up): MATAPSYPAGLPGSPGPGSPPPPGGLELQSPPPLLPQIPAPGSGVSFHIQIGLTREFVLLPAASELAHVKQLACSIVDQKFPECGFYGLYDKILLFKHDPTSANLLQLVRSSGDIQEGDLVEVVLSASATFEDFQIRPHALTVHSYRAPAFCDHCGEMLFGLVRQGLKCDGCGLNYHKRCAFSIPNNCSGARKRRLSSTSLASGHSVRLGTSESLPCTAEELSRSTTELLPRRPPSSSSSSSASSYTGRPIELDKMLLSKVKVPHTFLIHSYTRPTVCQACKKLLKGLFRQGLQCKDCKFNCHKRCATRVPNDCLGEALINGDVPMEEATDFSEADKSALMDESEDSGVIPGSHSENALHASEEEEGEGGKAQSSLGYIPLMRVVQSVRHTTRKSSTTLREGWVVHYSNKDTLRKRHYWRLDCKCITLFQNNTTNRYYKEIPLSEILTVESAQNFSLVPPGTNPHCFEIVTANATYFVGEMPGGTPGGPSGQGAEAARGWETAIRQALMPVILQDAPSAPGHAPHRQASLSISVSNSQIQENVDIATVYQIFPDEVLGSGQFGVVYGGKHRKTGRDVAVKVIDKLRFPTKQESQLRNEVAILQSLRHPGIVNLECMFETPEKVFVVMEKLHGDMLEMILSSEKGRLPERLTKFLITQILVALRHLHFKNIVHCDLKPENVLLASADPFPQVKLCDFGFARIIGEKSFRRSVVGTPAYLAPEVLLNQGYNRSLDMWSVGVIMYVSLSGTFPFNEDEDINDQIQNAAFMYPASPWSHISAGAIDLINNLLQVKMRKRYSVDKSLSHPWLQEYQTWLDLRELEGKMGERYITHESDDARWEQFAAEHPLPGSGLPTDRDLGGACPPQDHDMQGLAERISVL
UniProt O15111, sequence (whole entry, looked up): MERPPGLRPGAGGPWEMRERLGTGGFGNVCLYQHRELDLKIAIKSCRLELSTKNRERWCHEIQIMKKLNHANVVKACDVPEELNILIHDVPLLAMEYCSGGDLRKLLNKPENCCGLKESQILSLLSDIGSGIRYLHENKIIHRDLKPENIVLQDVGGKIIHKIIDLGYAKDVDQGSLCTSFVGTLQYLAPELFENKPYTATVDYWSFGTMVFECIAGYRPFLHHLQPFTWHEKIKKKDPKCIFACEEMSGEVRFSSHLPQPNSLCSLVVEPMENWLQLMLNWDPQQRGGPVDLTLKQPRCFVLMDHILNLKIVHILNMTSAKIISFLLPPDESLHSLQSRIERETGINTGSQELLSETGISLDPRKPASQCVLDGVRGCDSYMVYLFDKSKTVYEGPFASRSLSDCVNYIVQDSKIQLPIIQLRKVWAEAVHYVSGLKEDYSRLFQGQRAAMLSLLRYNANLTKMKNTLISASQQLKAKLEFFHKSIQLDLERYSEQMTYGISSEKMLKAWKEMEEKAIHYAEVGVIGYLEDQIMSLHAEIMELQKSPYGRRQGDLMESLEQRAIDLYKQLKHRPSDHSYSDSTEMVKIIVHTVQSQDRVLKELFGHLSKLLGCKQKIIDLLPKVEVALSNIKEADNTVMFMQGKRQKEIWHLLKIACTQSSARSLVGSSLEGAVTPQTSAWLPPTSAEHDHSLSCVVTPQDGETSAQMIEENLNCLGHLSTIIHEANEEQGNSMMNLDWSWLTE

With `[2H]c1c([2H])c([C@]2([2H])CCCN2C(=O)C(C)(C)Oc2ccc3cn[nH]c3c2)c([2H])c([2H])c1C([2H])([2H])[2H]` the remaining binding was 86% (CIT (Homo sapiens, UniProt O14578); KINOMEscan; 1 µM; baseline: DMSO control).
`COc1ccc(-c2ccc(CNC3(C(=O)NO)CCS(=O)(=O)CC3)cc2)c(F)c1` gave a residence time of ~30 min and 32 min (UDP-3-O-acyl-N-acetylglucosamine deacetylase (Pseudomonas aeruginosa, UniProt P47205); fluorescence; 37 °C).
With `O=C(Cc1cccs1)N[C@@H]1C(=O)N2C(C(=O)O)=C(/C=C/c3ccc([N+](=O)[O-])cc3[N+](=O)[O-])CS[C@H]12` the kcat was 4.1 ± 0.2 s⁻¹ (blaNDM-1 (Klebsiella pneumoniae, UniProt C7C422, C208S); substrate, steady-state kinetics).
The inhibition of `COc1ccc(N2C(=O)N(c3c(C)cccc3Cl)Cc3cnc(Nc4ccc(C5CCN(C)CC5)cc4OC)nc32)nc1` is reported as 6.36% (PIK3CA (Homo sapiens, UniProt P42336); kinase activity, inhibitor; 0.5 µM, kinase PI3K-ALPHA).
`C[C@H]1CN(c2n[nH]c3nc(N[C@H]4CC[C@H](NS(=O)(=O)CCC(F)(F)F)CC4)ncc23)CCO1` has a relative abundance of 1.04 (CHUK (Homo sapiens, UniProt O15111); inhibitor, Kinobeads competition profiling; 0.16 µM; baseline: vehicle).
`O=C(Nc1cccnn1)N1CCC(=Cc2cccc(Oc3ccc(C(F)(F)F)cn3)c2)CC1` gave an inhibition of 1% (PRKD2 (Homo sapiens, UniProt Q9BZL6); kinase activity, inhibitor; 50 µM, human, together with: MAPKAPK substrate).
`O=C(c1ccc(Cl)cc1)N1CCN2C(=O)N(OC(=O)N3CCOc4ccccc43)C(=O)C2C1` (stereo not shown) — result for “median protein ratio”: 1.07 (TUBB (Homo sapiens, UniProt P07437); MS-based ABPP; SW-620 conditioned medium; 10 µM; baseline: compound over DMSO, lower = more inhibition).
For `CN1CCN(c2cc(-c3ccncc3)c(-c3ccc4ccccc4c3)nn2)CC1`, the inhibition was -4.8% (FFAR2 (Homo sapiens, UniProt O15552); antagonist, FLIPR; 10 µM).
The inhibition of `O=C(Nc1cnccc1Cl)N1CCN(Cc2ccc3c(c2)OC(F)(F)O3)CC1` is reported as -4% (central imidazoline I2 receptor, rat; binding; 10 µM, together with: [3H]idazoxan).
`CC1(C)[C@H](C(=O)O[C@H](C#N)c2cccc(Oc3ccccc3)c2)[C@@H]1C=C(Br)Br` has a remaining activity of 100% (uncharacterized protein (Anopheles coluzzii, UniProt A0A6E8VQK1); enzyme activity, inhibitor; Sf9 cell homogenate; 4.545 µM, 0.1667 h, together with: α-naphthyl acetate substrate; baseline: no inhibitor).
